Measured values gathered from unrelated publications.
Lines come from different studies, so protocols differ. Several values in a cell are separate wells, animals, samples, runs or records. ± gives the spread as reported.

For Cc1cc(C(=O)Nc2nc3cccc(C)c3n2[C@H]2CCCCN(C(=O)/C=C/CN(C)C)C2)ccn1, “cell cycle distribution” read 14.6% and 15.8% and 15% (Trypanosoma brucei; propidium iodide flow cytometry, measured: S phase; bloodstream CLK1 over-expression induced; concentration not given).
CC(O)CN(CC(C)O)CC(C)O.O=C(O)C(Cl)Cl (stereo not shown) has an inhibition of 0% (Amaranthus retroflexus; herbicidal activity; 15 mg/mL, 21 days, pre-emergence greenhouse).
For COc1ccc(Cn2c3cc(=O)n(Cc4cccc(Cl)n4)c(C)c3c(=O)n2-c2ccccn2)cc1, “normalized viral replication” read 0 (human respiratory syncytial virus; recombinant reporter virus; concentration not given, scale 0 to 100, added: cytidine 0.13 µM).
For CC[C@H](C)CCCCC(=O)N[C@@H](CCN)C(=O)N[C@H](C(=O)N[C@@H](CCN)C(=O)N[C@H]1CCNC(=O)[C@H]([C@@H](C)O)NC(=O)[C@H](CCN)NC(=O)[C@H](CCN)NC(=O)[C@H](CC(C)C)NC(=O)[C@@H](CC(C)C)NC(=O)[C@H](CCN)NC1=O)[C@@H](C)O, “MIC fold change” read 1.95 (Escherichia coli; daily serial passaging; ATCC 8739; highest sub-MIC, 5 days; baseline: initial MIC).
CCc1nn(C)c2nc(-c3ccc(C(=O)O)cc3)nc(NCc3ccccc3)c12 has an inhibition of -11.6% and -2.34% (Cryptosporidium parvum; parasite growth, immunofluorescence imaging; HCT-8, Iowa; 222 nM).
CC1=C[C@@H](C)[C@H]2[C@@H]3C(=O)C(Cl)(Cl)C(=O)[C@H](C)C(=O)O[C@@H](C)/C=C/C=C\[C@@H](C)[C@@H]3C=C[C@@H]2C1: “MIC fold shift” 16 (Staphylococcus aureus; Newman mutant MT-3; baseline: parent strain).
The inhibition of CCOC(=O)C1(Cc2ccccc2)Oc2cc(OC)ccc2N(Cc2ccccc2)C1=O (stereo not shown) is reported as 52.3 ± 3.78% (Amaranthus retroflexus; fresh weight, greenhouse postemergence; postemergence, 150 g ai/ha, 21 days).
With [O-][N+]1=C(c2ccccc2)C2=NCCN2c2ccccc21 the MIC50 was ≤ 0.06 µg/mL (Bacteroides fragilis; microbial growth).
CCCN1C(=O)C(CCC)(C(=O)OCC)Oc2cc(F)ccc21 (stereo not shown) has an inhibition of 60.9 ± 2.37% (Amaranthus retroflexus; fresh weight, greenhouse postemergence; postemergence, 150 g ai/ha, 21 days).
CC[C@H](C)[C@H](NC(=O)[C@H](Cc1ccccc1)NC(=O)[C@H](CCCCN)NC(=O)[C@H](CCCCN)NC(=O)CNC(=O)[C@H](C)NC(=O)[C@H](CC(N)=O)NC(=O)[C@H](CCCCN)NC(=O)[C@H](Cc1ccccc1)NC(=O)[C@H](CC(N)=O)NC(=O)[C@H](CCC(=O)O)NC(=O)[C@H](Cc1c[nH]c2ccccc12)NC(=O)[C@H](CC(C)C)NC(=O)[C@@H](N)CO)C(=O)N[C@@H](CC(C)C)C(=O)N[C@@H](CC(N)=O)C(=O)N[C@H](C(=O)N[C@@H](CC(C)C)C(=O)N[C@@H](CC(=O)O)C(=O)N[C@@H](CCCCN)C(N)=O)[C@@H](C)CC — result for “geometric mean MIC”: 13.5 µM (all tested microorganisms).
CN(C(=O)c1ccn2ncc(-c3ccc(C(N)=O)cc3)c2c1)c1ccc(C#N)cn1: “faecal Nluc luminescence” 107 a.u. and 42800 a.u. and 1860 a.u. and 1200 a.u. (Cryptosporidium parvum; UGA1 Nluc, IFN-gamma knockout C57BL/6 mice, faeces; oral, 10 mg/kg daily, 384 h post infection, treatment days 11-17; higher means more parasites).
[O-][N+]1=C(c2ccccc2)C2=NCCCN2c2ncccc21 gave an MIC50 of ≤ 0.06 µg/mL (Bacteroides fragilis; microbial growth).
CC(C)[C@H]1NC(=O)[C@H](Cc2ccccc2)NC(=O)[C@@H](C(C)C)NC(=O)[C@@H](C)NC(=O)[C@H](CO)NC(=O)[C@@H](Cc2c(-c3ccc(-c4cccc5ccccc45)cc3)[nH]c3ccccc23)NC(=O)[C@@H](CO)NC1=O gave an MIC90 of > 50 µM (Vibrio vulnificus; broth dilution).

Excerpt of the above:
CCCN1C(=O)C(CCC)(C(=O)OCC)Oc2cc(F)ccc21 (stereo not shown) has an inhibition of 60.9 ± 2.37% (Amaranthus retroflexus; fresh weight, greenhouse postemergence; postemergence, 150 g ai/ha, 21 days).
